Measurements gathered from unrelated publications.
Lines come from different studies, so protocols differ. Values joined by “and” are separate records of one study, mostly repeats; a detail may differ. ± marks the error that the study gave. In brackets after ≈: the same amount, converted by molar mass.

| SMILES | target or system | test | test system | setting | how to read | endpoint | value |
| --- | --- | --- | --- | --- | --- | --- | --- |
| CC(C)C[C@H](NC(=O)[C@H](CC(=O)O)NC(=O)CNC(=O)[C@@H](N)CCCNC(=N)N)C(=O)N[C@@H](C)C(=O)N[C@H](C(=O)N[C@@H](CC(C)C)C(=O)N[C@@H](CCCNC(=N)N)C(=O)N[C@@H](CCC(N)=O)C(=O)N[C@@H](CC(C)C)C(=O)N[C@@H](C)C(=O)N[C@@H](CCC(N)=O)C(=O)N[C@@H](CCC(=O)O)C(=O)N[C@@H](CC(=O)O)C(=O)NCC(=O)N[C@H](C(=O)N[C@H](C(=O)NCC(=O)N[C@H](C(=O)N[C@@H](CCCNC(=N)N)C(=O)NCCOCCOCCOCCOCCOCCOCCOCCOCCOCCOCCOCCOCCC(=O)N[C@@H](CS)C(N)=O)C(C)C)C(C)C)C(C)C)[C@@H](C)O |  | ex vivo NIR imaging | NOD/SCID mice, xenograft, H2009 xenograft | intravenous, 30 µg, 24 h | relative to: lung | fluorescence signal ratio | 7.6 and 45 |
| C=CC(=O)N1[C@@H](c2ccc3c(c2)OCO3)c2[nH]c3ccccc3c2C[C@H]1C(=O)N1CCN(C)CC1 | human cyclin E1 N112C-3xFLAG:CDK2 | co-IP with TMT proteomics, item: SNRNP200 |  | concentration not given, O75643 | relative to: wild type DMSO | relative co-enrichment | 152% |
| Oc1c(/N=N/c2ccccn2)ccc2ccccc12 | Mus musculus | gene silencing, high-content imaging | LDR reporter GFP cells | 30 h, retest run 2 |  | Emax | 242% |
| C[n+]1ccc(/C=N/NC(=O)N/N=C/c2cc[n+](C)cc2)cc1 | hp2 hairpin duplex DNA | FRET melting |  | 1 µM, added: ds26 10 µM |  | ΔTm | 0.3 ± 0.3 °C |
| COCC/N=C(\S)N/N=C(\C)c1ccccc1O | Mus musculus | gene silencing, high-content imaging | LDR reporter GFP cells | 30 h, retest run 2 |  | Emax | 44% |
| C=CC(=O)Nc1cccc(Cn2ncc3cnc(Nc4cnn(CCOC)c4)nc32)c1 | human MEK1 | KINOMEscan |  | 100 nM | relative to: control | binding | 100% |
| COC1OC(C)C(OC2OC(C)C(O)C(OC3OC(C)C(O)C(OS(=O)(=O)O)C3OS(=O)(=O)O)C2OS(=O)(=O)O)C(OS(=O)(=O)O)C1OS(=O)(=O)O (centres unmarked) |  |  | human plasma | 128 µg/mL | relative to: control | prothrombin time prolongation | 1.01 fold |
| C[n+]1ccc(/C=N/NC(=O)C(=O)N/N=C/c2cc[n+](C)c3ccccc23)c2ccccc21 | MYC parallel G4 DNA | FRET melting |  | 1 µM, DNA 0.2 µM |  | ΔTm | 3.4 ± 0.6 °C |
| Cc1ncsc1-c1ccc(C(C)NC(=O)C2CC(O)CN2C(=O)C(NC(=O)CCCCCCCCCCN2CCCC(Nc3ncc(Cl)c(Nc4ccccc4S(=O)(=O)C(C)C)n3)C2)C(C)(C)C)cc1 (centres unmarked) | 22Rv1 | RNA-seq, item: PERCC1 mRNA |  | concentration not given | relative to: DMSO | log2 fold change | -2.54 |
| Nc1ncc(-c2cc(-c3cnn(CC(F)(F)F)c3)ncc2F)nc1C(=O)NC1CNCC(F)C1 (centres unmarked) | PRKR | KINOMEscan competition binding |  | 1 µM | relative to: DMSO control | remaining binding | 82% |
| C[n+]1ccc(/C=N/NC(=O)c2ccc3ccc(C(=O)N/N=C/c4cc[n+](C)c5ccccc45)nc3n2)c2ccccc21 | hp2 hairpin duplex DNA | FRET melting |  | 1 µM |  | ΔTm | 0.9 ± 0.4 °C |
| C=C(NC(=O)c1csc(-c2nc3c(cc2O)-c2nc(cs2)C(=O)NC(C(C)O)C(=O)NC(=C(C)OC)c2nc(cs2)C(=O)NC2c4nc(cs4)C(=O)NC(COC(=O)c4c5c6c(cccc6n4O)COC(=O)C(OC4CC(C)(O)C(N(C)C)C(C)O4)C2OC5)c2nc-3cs2)n1)C(N)=O (centres unmarked) | Staphylococcus epidermidis |  |  |  |  | MIC50 | 7.8 ng/mL (≈ 5.43 nM) |
| COC1OC(C)C(OS(=O)(=O)O)C(OC2OC(C)C(OS(=O)(=O)O)C(OC3OC(C)C(OS(=O)(=O)O)C(OC4OC(C)C(OS(=O)(=O)O)C(OC5OC(C)C(OS(=O)(=O)O)C(OC6OC(C)C(OS(=O)(=O)O)C(OC7OC(C)C(OS(=O)(=O)O)C(OC8OC(C)C(OS(=O)(=O)O)C(OC9OC(C)C(OS(=O)(=O)O)C(OC%10OC(C)C(OS(=O)(=O)O)C(OC%11OC(C)C(OS(=O)(=O)O)C(OS(=O)(=O)O)C%11O)C%10O)C9O)C8O)C7O)C6O)C5O)C4O)C3O)C2O)C1O (centres unmarked) |  |  | human plasma | 128 µg/mL |  | prothrombin time | 14.7 ± 0.5 s |
| O=C(CSc1cccc[n+]1[O-])c1ccccc1Br | Mus musculus | gene silencing, high-content imaging | LDR reporter GFP cells | 30 h, retest, mean of two runs |  | Emax | 98% |
| CC[n+]1cccc2cc(/C=N/NC(=O)c3ccc4ccc5ccc(C(=O)N/N=C/c6ccc7c(ccc[n+]7CC)c6)nc5c4n3)ccc21 | MYC parallel G4 DNA | FRET melting |  | 1 µM, DNA 0.2 µM |  | ΔTm | 21 ± 0.2 °C |
| O=C(NN1C(=O)c2ccccc2NC1c1ccc([N+](=O)[O-])o1)c1ccc([N+](=O)[O-])cc1 (centres unmarked) | Mus musculus | gene silencing, high-content imaging | LDR reporter GFP cells | confirmation, mean of two runs |  | EC50 | 31600 nM |

| SMILES | target or system | test | test system | setting | how to read | endpoint | value |
| --- | --- | --- | --- | --- | --- | --- | --- |
| C[n+]1cc(/C=N/NC(=O)N/N=C/c2cc3ccccc3[n+](C)c2)cc2ccccc21 | hp2 hairpin duplex DNA | FRET melting |  | 1 µM, added: ds26 10 µM |  | ΔTm | 0.9 ± 0.2 °C |
| COc1nc(Nc2nc(O)c3ccccc3n2)nc2ccc(C)cc12 | Mus musculus | gene silencing, high-content imaging | LDR reporter GFP cells | 30 h, retest, mean of two runs |  | Emax | 45% |
| CC(C)(C)c1cc(-c2ccc3cccnc3n2)nc(-c2ccc3cccnc3n2)c1.COc1ccncc1.[Cl-].[Cl-].[Ru+2].c1ccc2cc3nc4c5cccnc5c5ncccc5c4nc3cc2c1 | A-375 | resazurin |  | added: light 633 nm, 20 mW, 100 J/cm2 |  | EC50 | 1590 nM |
| COc1ccc2c(C)nc(Nc3nc(O)cc(-c4ccccc4)n3)nc2c1 | Mus musculus | gene silencing, high-content imaging | LDR reporter GFP cells | 30 h, confirmation, mean of two runs |  | Emax | 100% |
| COC1CN([C@H]2CC[C@H]([C@@]3(C)Oc4c(Cl)cc(C(=O)NCc5c(SC)cc(C)[nH]c5=O)c(C)c4O3)CC2)C1 |  | RNA-seq, item: PDE2A mouse homolog | mouse, HT-1376 xenograft, whole blood | dose not given | relative to: vehicle | log2 fold change | 1.94 |
| O=C(N/N=C/c1ccc(C[n+]2ccccc2)cc1)N/N=C/c1ccc(C[n+]2ccccc2)cc1 | hp2 hairpin duplex DNA | FRET melting |  | 1 µM, added: ds26 10 µM |  | ΔTm | 0.9 ± 0.1 °C |
| CCC(=O)N1CCN(c2ccc(NC(=O)c3ccc([N+](=O)[O-])o3)cc2Cl)CC1 | Mus musculus | gene silencing, high-content imaging | LDR reporter GFP cells | retest run 2 |  | AC50 | 1000 nM |
| COC1OC(C)C(OS(=O)(=O)O)C(OC2OC(C)C(OS(=O)(=O)O)C(OC3OC(C)C(OS(=O)(=O)O)C(OC4OC(C)C(OS(=O)(=O)O)C(OC5OC(C)C(OS(=O)(=O)O)C(OS(=O)(=O)O)C5O)C4O)C3O)C2O)C1O (centres unmarked) |  |  | human plasma | 128 µg/mL | relative to: control | prothrombin time prolongation | 0.96 fold |
| CNS(=O)(=O)Nc1nccc(Cc2c(C)c3ccc(Oc4ncccc4F)cc3oc2=O)c1F | CAMA-1 | cell viability |  | 7 days |  | IC50 | > 1000 nM |
| CN1CCCNC(=O)c2cccc(c2)C(=O)NCCCN(C)CCCNc2cccc3c2C(=O)c2cccc(c2C3=O)NCCC1 | SAS | RNA-Seq, item: LMNTD2 mRNA |  | 1 µM, 6 h | relative to: untreated cells | log2 fold change | 2 |
| CCN(CC)CC(=O)Nc1cccc(-n2cc(-c3ccc4ccc(-c5cn(-c6cccc(NC(=O)CN(CC)CC)c6)nn5)cc4c3)nn2)c1 | RCC4 | PCR angiogenesis array, item: NRP2 |  | 5 x IC50, 4 h, normoxia | relative to: untreated | fold regulation | -1.35 |
| C[n+]1cc(/C=N/NC(=O)c2cccc(C(=O)N/N=C/c3cc4ccccc4[n+](C)c3)n2)cc2ccccc21 | hp2 hairpin duplex DNA | FRET melting |  | 1 µM, added: ds26 10 µM |  | ΔTm | 0.6 ± 0.3 °C |
| N=C(S)N/N=C/c1ncc(C(F)(F)F)cc1Cl | Mus musculus | gene silencing, high-content imaging | LDR reporter GFP cells | 30 h, confirmation, mean of two runs |  | Emax | 42% |
| O=C(c1cccc(-c2ccc3ncnc(Nc4ccc(OCc5cccc(F)c5)c(Cl)c4)c3c2)c1)N1CCCC1 | Leishmania major | parasite growth, resazurin |  | promastigote |  | EC50 | > 15000 nM |
| COC1OC(C)C(OS(=O)(=O)O)C(OC2OC(C)C(OS(=O)(=O)O)C(OC3OC(C)C(OS(=O)(=O)O)C(OC4OC(C)C(OS(=O)(=O)O)C(OS(=O)(=O)O)C4O)C3O)C2O)C1O (centres unmarked) |  |  | human plasma | 128 µg/mL |  | prothrombin time | 15.1 ± 0.2 s |
| C[n+]1cc(/C=N/NC(=O)c2ccc3ccc(C(=O)N/N=C/c4cc5ccccc5[n+](C)c4)nc3n2)cc2ccccc21 | hp2 hairpin duplex DNA | FRET melting |  | 1 µM |  | ΔTm | 1.3 ± 0.2 °C |
